# Measurements collected from several papers.
# Parts stem from different laboratories: compare values within a part only. Substitutions count along the parent as printed.
# Sequence of UniProt O24410 (whole entry, looked up): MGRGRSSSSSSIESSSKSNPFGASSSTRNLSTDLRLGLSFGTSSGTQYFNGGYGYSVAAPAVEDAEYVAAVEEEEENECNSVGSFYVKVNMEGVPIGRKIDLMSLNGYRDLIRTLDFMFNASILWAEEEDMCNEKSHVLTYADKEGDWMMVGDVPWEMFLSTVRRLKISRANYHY
# Sequence of UniProt Q9ZTX8 (whole entry, looked up): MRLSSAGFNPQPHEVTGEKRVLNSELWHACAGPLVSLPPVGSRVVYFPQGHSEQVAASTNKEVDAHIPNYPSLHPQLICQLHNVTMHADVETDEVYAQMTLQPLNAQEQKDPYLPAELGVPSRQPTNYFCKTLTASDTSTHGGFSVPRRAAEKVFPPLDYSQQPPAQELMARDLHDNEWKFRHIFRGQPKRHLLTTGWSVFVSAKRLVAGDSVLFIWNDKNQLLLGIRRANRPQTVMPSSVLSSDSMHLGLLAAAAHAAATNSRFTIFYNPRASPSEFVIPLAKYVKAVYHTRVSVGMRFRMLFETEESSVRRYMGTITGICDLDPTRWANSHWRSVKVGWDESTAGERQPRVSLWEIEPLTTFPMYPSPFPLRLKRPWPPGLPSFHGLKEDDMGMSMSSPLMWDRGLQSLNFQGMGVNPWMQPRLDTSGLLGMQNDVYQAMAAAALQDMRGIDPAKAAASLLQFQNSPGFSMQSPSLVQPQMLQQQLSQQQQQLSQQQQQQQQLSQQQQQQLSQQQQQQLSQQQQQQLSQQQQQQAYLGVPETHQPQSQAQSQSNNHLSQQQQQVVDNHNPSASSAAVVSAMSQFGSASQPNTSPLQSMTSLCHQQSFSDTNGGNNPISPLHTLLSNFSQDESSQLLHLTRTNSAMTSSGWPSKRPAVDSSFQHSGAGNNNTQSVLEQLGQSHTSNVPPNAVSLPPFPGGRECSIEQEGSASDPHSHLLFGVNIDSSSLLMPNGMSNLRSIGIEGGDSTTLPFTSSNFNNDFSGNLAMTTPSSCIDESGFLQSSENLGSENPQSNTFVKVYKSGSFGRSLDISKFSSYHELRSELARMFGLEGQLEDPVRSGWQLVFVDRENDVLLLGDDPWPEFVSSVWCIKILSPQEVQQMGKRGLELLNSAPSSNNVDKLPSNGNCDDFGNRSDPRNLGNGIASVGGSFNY
# Sequence of UniProt Q8RYC6 (whole entry, looked up): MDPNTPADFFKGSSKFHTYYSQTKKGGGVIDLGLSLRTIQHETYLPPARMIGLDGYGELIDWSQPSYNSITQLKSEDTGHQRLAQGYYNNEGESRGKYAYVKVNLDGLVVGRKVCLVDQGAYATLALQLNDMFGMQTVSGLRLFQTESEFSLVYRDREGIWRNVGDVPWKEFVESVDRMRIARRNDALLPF
# Sequence of UniProt O24409 (whole entry, looked up): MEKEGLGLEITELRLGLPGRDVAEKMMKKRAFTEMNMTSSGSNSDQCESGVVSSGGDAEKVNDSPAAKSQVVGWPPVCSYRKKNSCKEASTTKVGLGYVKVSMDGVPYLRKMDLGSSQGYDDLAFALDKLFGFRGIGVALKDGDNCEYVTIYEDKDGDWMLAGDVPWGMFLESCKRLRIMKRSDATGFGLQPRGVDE

# Set 1
# Target: Centromere-binding protein 1, full length, His-tagged (CBF1, Saccharomyces cerevisiae, UniProt P17106, residues 1-351)
# Sequence of UniProt P17106 (whole entry, looked up): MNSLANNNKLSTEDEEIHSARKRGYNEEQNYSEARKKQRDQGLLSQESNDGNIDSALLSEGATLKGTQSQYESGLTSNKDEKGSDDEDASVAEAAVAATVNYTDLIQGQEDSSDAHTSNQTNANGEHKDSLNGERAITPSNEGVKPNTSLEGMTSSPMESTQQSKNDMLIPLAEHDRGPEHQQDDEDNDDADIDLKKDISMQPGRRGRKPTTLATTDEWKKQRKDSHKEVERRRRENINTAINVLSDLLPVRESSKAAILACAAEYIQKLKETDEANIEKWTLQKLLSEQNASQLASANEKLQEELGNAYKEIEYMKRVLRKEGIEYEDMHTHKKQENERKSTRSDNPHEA
# Method: competition protein-binding microarray
# Molecule type: double-stranded DNA, one strand shown
# Medium: in vitro
# Tested at: 2 µM
# Setting: whole 60-bp probe, lowest competitor level
# With: Pho4 competitor, 0.05 µM
# Direction: higher = stronger binding
Strand,fluorescence intensity [a.u.]
TGTAAATTTTTTTCAGCCACTTTATCGGCACTGGAAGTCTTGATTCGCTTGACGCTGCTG,81.4
CTAACGAAGGTTTGATCGGTGGGTGACAAGCCAAGTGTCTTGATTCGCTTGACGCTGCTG,65.1
CATACCCAACCTTGAAGCGTGGGTGAAGATATTTGTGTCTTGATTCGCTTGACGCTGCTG,77.8
GATTGGGATCCTTGTCATGATGATGCCATAGCCATTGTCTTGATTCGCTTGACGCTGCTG,67
ATCGCTTATCGCTGTCATGTGACAGTTAATTGAAATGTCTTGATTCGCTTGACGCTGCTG,2840
AATACACACAACTCAAACGTGTATAAACGACTTTATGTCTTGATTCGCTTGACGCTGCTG,97.5
TGTAAATGATGATAACGTAAAAGCACTGTTGATAATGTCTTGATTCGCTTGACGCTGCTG,87.4
GCTGCTTTACAAGAACACATGAAAAATCCAGAAGTAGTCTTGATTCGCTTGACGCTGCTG,101

# Set 2
# Target: CCNB1, cyclin fold, Cln2 fusion (human)
# Method: yeast growth competition, sequencing
# Medium: yeast
# Setting: strong parent motif
# Reference: not given
# Direction: higher = stronger binding
# Starting sequence: viral docking peptide; YKVKRRLVFGADD; partner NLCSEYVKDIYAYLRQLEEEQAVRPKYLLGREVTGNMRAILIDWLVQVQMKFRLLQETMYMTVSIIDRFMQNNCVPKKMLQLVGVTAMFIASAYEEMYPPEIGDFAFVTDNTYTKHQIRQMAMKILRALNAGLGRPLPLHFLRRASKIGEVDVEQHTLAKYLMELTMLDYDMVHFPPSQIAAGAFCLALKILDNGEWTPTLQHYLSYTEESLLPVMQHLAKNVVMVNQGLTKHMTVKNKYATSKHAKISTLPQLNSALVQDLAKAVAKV
Variant,normalised enrichment score
D12G,2.71
A11L,4.06
D12P,2.63
R6W,-0.113
R5P,-0.112
A11M,3.64
K4Q,4.19
V8G,0.956
R6F,-0.109
K4N,4.27
R5Q,2.76
K2I,3.62
K2H,4.19
G10Q,3.54
A11R,2.94
K4T,3.47

# Set 3
# Molecule: B1 (IAA3)
# Method: two-hybrid
# Reference: out of 4 tests
# Direction: higher = firmer interaction
# B1: IAA3 (Arabidopsis thaliana, UniProt Q38822); chain MDEFVNLKETELRLGLPGTDNVCEAKERVSCCNNNNKRVLSTDTEKEIESSSRKTETSPPRKAQIVGWPPVRSYRKNNIQSKKNESEHEGQGIYVKVSMDGAPYLRKIDLSCYKGYSELLKALEVMFKFSVGEYFERDGYKGSDFVPTYEDKDGDWMLIGDVPWEMFICTCKRLRIMKGSEAKGLGCGV
partner,setting,positive tests
"IAA32 (Arabidopsis thaliana, UniProt Q8RYC6)",,0
"IAA16 (Arabidopsis thaliana, UniProt O24407)",,4
"IAA19 (Arabidopsis thaliana, UniProt O24409)",,4
"ARF6 790-935 (Arabidopsis thaliana, UniProt Q9ZTX8)",,3
"IAA9 (Arabidopsis thaliana, UniProt Q38827)",,4
"IAA20 (Arabidopsis thaliana, UniProt O24410)",weak activation fusion,2

# Set 4
# Target: PABPC1L2, full length, GST fusion (mouse, UniProt A0ABA7IW68)
# Method: RNAcompete
# Molecule type: RNA
# Medium: in vitro
# Tested at: 20 nM
# Setting: 7-mer, probes averaged, single round
# Reference: mean of 7-mers
# Direction: higher = stronger binding
# Construct (chain): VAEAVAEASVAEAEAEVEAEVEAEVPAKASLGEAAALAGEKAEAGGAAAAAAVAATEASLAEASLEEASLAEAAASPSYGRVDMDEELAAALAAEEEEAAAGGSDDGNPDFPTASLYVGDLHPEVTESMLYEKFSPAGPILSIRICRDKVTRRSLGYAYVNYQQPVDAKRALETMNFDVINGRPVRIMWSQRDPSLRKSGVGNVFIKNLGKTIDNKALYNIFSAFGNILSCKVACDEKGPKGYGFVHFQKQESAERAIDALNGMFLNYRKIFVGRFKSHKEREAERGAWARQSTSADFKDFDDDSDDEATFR
Strand,7-mer Z-score
GGGUUAU,0.104
UCAAUGG,-0.0101
GACUCGG,0.0261
UGCAGGG,0.108
CGUCUCC,-0.432
UGCCCUU,-0.369
AGAUAGG,-0.0935
AAAGACU,1.29
